Measured values collected from several papers.
Compare with care: the assays were run in different laboratories.
CTSL: Procathepsin L (CTSL, Homo sapiens, UniProt P07711)
Chain of UniProt P07711 (whole entry, looked up): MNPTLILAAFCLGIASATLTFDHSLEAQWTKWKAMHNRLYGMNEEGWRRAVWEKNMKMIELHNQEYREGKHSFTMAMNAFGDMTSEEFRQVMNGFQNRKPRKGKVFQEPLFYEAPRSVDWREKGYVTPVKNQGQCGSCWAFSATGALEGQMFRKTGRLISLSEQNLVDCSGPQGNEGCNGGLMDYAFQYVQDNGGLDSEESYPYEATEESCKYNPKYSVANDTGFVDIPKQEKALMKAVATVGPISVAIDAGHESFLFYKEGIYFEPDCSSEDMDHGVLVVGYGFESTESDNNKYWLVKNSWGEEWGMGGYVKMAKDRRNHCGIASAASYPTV
MPO: Myeloperoxidase (MPO, Homo sapiens, UniProt P05164)
Chain of UniProt P05164 (whole entry, looked up): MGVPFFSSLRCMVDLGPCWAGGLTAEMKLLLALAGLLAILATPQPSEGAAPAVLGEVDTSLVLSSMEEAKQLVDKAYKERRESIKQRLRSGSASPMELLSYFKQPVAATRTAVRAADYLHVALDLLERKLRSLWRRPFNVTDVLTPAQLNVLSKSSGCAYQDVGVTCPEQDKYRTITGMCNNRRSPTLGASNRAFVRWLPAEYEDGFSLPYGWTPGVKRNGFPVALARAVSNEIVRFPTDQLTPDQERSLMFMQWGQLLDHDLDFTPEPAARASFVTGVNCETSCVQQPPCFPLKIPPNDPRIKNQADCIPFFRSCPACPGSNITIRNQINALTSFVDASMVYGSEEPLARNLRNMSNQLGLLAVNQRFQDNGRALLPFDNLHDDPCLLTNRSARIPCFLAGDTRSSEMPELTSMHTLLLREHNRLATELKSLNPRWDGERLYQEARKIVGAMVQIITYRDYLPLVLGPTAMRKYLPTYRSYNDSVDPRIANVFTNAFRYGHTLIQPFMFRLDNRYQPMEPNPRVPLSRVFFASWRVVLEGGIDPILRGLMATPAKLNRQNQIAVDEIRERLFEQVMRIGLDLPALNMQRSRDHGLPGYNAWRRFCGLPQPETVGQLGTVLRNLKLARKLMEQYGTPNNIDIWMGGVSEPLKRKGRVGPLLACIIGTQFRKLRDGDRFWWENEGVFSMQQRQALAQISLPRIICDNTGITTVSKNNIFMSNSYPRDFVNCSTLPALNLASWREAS
Transmembrane protease serine 6: Transmembrane protease serine 6 (Homo sapiens, UniProt Q8IU80)
Chain of UniProt Q8IU80 (whole entry, looked up): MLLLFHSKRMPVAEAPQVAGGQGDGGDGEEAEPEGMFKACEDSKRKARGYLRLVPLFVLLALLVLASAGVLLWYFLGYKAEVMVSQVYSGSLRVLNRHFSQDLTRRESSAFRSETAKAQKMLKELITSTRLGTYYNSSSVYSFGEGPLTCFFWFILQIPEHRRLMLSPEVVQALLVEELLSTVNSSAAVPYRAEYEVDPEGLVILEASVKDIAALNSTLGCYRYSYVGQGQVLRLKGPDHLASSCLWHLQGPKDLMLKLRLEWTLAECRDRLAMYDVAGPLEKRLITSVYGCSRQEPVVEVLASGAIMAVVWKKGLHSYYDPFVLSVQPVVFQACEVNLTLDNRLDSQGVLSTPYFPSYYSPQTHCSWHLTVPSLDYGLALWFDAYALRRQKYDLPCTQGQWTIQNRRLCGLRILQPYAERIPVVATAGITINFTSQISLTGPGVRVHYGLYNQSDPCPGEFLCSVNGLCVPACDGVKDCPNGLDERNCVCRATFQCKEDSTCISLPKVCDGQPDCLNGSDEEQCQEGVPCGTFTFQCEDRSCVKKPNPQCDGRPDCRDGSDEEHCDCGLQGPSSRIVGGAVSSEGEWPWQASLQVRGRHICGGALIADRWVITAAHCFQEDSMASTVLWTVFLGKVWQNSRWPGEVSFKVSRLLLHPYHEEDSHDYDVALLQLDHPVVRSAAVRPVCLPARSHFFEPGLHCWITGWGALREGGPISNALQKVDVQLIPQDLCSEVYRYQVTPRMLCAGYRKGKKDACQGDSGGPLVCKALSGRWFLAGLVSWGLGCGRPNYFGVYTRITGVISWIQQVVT
ST14: Suppressor of tumorigenicity 14 protein (ST14, Homo sapiens, UniProt Q9Y5Y6)
Chain of UniProt Q00535 (whole entry, looked up): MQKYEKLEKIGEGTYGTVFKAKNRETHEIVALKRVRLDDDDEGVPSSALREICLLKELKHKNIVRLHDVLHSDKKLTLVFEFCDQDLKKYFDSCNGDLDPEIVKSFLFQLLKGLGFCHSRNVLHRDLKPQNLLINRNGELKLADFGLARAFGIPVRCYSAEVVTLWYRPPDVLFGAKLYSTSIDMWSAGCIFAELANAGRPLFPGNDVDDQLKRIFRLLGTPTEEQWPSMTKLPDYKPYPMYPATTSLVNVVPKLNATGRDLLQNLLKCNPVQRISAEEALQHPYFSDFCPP
Chain of UniProt Q9Y5Y6 (whole entry, looked up): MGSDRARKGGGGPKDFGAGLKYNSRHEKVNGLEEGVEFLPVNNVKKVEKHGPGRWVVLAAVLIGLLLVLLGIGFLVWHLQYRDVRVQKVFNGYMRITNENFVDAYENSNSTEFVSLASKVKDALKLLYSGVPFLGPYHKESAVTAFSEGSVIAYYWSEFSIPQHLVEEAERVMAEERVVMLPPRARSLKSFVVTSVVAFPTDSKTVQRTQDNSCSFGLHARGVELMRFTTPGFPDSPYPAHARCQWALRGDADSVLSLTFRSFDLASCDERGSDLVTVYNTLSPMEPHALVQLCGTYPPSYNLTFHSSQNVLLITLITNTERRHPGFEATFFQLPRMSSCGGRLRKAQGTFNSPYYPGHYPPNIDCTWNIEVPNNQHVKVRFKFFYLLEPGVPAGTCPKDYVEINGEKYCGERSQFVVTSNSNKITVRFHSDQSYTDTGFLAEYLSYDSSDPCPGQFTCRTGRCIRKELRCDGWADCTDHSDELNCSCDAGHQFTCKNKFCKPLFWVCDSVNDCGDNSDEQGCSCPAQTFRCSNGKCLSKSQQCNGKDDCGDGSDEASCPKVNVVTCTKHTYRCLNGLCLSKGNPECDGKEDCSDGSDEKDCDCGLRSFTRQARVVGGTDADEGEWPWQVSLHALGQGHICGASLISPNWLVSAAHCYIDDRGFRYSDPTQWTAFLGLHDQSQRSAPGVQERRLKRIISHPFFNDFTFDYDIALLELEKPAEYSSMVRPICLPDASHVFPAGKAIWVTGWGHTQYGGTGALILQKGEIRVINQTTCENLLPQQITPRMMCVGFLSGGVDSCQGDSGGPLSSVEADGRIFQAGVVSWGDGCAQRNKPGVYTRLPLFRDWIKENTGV
Chain of UniProt P49761 (whole entry, looked up): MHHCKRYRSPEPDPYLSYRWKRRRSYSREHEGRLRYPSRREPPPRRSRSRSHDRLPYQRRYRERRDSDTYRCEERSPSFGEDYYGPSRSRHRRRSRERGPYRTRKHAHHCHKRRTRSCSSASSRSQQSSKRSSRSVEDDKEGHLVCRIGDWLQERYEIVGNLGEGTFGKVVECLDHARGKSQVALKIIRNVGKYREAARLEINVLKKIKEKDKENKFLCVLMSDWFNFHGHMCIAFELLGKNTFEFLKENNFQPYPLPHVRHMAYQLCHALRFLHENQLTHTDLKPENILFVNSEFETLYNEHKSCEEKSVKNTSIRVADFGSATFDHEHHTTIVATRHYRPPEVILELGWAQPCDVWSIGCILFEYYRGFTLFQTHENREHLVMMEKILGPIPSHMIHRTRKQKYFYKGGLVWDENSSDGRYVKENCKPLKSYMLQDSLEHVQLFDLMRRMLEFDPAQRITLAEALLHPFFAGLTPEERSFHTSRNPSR
Chain of UniProt P22607 (whole entry, looked up): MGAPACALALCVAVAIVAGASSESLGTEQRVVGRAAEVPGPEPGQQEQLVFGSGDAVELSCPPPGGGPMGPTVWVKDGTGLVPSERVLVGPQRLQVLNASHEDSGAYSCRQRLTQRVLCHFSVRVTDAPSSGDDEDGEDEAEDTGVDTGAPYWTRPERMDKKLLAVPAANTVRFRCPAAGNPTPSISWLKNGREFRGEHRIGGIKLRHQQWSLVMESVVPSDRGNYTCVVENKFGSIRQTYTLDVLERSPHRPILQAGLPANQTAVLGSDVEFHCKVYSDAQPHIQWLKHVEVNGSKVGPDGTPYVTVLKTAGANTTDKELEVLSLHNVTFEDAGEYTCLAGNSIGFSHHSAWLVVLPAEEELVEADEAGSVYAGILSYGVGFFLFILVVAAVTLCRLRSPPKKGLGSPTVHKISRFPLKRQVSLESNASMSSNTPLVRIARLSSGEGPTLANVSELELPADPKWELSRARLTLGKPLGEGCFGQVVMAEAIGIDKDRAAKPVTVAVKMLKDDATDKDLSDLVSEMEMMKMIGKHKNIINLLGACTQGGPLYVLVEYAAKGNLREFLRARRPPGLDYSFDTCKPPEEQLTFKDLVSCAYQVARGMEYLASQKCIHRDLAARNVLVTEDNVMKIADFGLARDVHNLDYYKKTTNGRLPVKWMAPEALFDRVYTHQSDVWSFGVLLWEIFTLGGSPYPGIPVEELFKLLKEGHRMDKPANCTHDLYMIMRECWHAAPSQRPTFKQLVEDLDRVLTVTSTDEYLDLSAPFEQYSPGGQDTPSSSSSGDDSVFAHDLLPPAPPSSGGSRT
Chain of UniProt Q9NRA0 (whole entry, looked up): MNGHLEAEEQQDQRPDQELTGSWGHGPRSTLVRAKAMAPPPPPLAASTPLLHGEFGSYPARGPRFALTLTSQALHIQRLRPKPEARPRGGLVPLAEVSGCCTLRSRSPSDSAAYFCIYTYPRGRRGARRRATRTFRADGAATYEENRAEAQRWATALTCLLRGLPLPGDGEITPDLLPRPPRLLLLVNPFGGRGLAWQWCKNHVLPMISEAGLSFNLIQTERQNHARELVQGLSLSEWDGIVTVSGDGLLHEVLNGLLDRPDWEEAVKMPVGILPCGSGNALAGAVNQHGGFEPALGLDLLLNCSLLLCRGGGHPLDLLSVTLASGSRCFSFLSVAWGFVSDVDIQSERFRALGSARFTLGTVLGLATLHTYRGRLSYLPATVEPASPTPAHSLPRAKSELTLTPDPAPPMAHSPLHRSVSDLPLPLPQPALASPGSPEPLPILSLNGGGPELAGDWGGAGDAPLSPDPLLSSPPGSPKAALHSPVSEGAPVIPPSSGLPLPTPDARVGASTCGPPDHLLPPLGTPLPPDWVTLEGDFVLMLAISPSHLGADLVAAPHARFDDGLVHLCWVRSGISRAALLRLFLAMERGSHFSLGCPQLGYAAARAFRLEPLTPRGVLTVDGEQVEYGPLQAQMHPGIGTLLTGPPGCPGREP

CS(=O)(=NC#N)c1ccccc1Nc1nc(Nc2ccc(CO)nc2)ncc1Cl (stereo not drawn)  remaining activity (LCK (Homo sapiens, UniProt P06239); enzyme activity, inhibitor; 1 µM): 35.8%
NS(=O)(=O)c1ccc(CNc2ccnc(Nc3cccc(NC(=O)N4CCCC4)c3)n2)cc1  remaining activity (ULK1 (Homo sapiens, UniProt O75385); enzyme activity, inhibitor, radiometric; 1 µM): 97%
COc1cc(-c2cncc3c2CN(C)Cc2cc(N4CCNCC4)ccc2-3)cc(OC)c1OC  remaining activity (IKBKE (Homo sapiens, UniProt Q14164); enzyme activity, inhibitor; 1 µM): 102%
CC[C@H](C)[C@H](NC(=O)[C@H](CCC(N)=O)NC(=O)[C@@H](NC(=O)[C@H](CCSC)NC(=O)[C@H](CCCCN)NC(=O)[C@H](CO)NC(=O)[C@@H](NC(=O)[C@H](CCSC)NC(=O)[C@H](CC(C)C)NC(=O)[C@H](CC(N)=O)NC(=O)[C@@H](NC(=O)[C@@H](NC(=O)[C@H](CO)NC(=O)[C@H](CC(C)C)NC(=O)[C@H](C)NC(=O)[C@H](CCCNC(=N)N)NC(=O)[C@H](CCC(=O)O)NC(=O)[C@H](Cc1ccc(O)cc1)NC(=O)[C@H](Cc1ccccc1)NC(=O)[C@H](C)NC(=O)[C@H](CC(N)=O)NC(=O)[C@@H](N)CCCCN)[C@@H](C)CC)[C@@H](C)CC)[C@@H](C)O)C(C)C)C(=O)N[C@@H](CC(N)=O)C(=O)N[C@H](C(=O)O)C(C)C  remaining activity (Cyclin-dependent kinase 5, with p25 (CDK5, Homo sapiens, UniProt Q00535); enzyme activity, inhibitor, radiometric; 500 µM, 20 min): 15%
O=c1cc(-c2ccc(O)c(-c3c(O)cc(O)c4c(=O)cc(-c5ccc(O)cc5)oc34)c2)oc2cc(O)cc(O)c12  remaining activity (CTSL; enzyme activity, inhibitor; 100 µM): 102%
CC(=NNC(=S)Nc1ccccc1)c1ccc(Nc2nnc(-c3ccc(Cl)cc3)c3ccccc23)cc1  viability (MCF7; cell growth or viability, MTT; 2.5 µM, 24 h): 12.2%
NC/C(=C\F)COc1cccc(Cn2c(=S)[nH]c(=O)c3[nH]cnc32)c1  remaining activity (MPO; enzyme activity, inhibitor; 0.25 µM): 9.08%
CC(CCC1(O)OC2CC3C4CC=C5CC(OC6OC(CO)C(OC7OC(C)C(O)C(O)C7O)C(O)C6OC6OC(C)C(O)C(O)C6O)CCC5(C)C4CCC3(C)C2C1C)COC1OC(CO)C(O)C(O)C1O (stereo not drawn)  remaining activity (CTSL; enzyme activity, inhibitor; 100 µM): 119%
Cc1cccc(N(O)N=Nc2ccc(S(=O)(=O)Nc3cc(C)on3)cc2)c1  inhibition (ABTS scavenging; 120 µg/mL): 56.2%
CC(C)OCCn1c(=S)[nH]c(=O)c2[nH]ccc21  remaining activity (MPO; enzyme activity, inhibitor; 0.625 µM): 44.9%
CCCN(O)N=Nc1ccc(S(=O)(=O)Nc2cc(C)on2)cc1  inhibition (ABTS scavenging; 240 µg/mL): 33.8%
CC[C@H](C)[C@H](NC(=O)[C@H](CCC(N)=O)NC(=O)[C@H](CC(C)C)NC(=O)[C@H](CCSC)NC(=O)[C@H](CCCCN)NC(=O)[C@H](CO)NC(=O)[C@H](CO)NC(=O)[C@H](CCSC)NC(=O)[C@H](CC(C)C)NC(=O)[C@H](CC(N)=O)NC(=O)[C@@H](NC(=O)[C@@H](NC(=O)[C@H](CO)NC(=O)[C@H](CC(C)C)NC(=O)[C@H](CS)NC(=O)[C@H](CCCNC(=N)N)NC(=O)[C@H](CC(=O)O)NC(=O)[C@H](Cc1c[nH]c2ccccc12)NC(=O)[C@H](Cc1ccccc1)NC(=O)[C@H](C)NC(=O)[C@H](CCC(=O)O)NC(=O)[C@@H](N)CCCCN)C(C)C)[C@@H](C)CC)C(=O)N[C@@H](CC(N)=O)C(=O)N[C@@H](C)C(=O)O  remaining activity (Cyclin-dependent kinase 5, with p35 (CDK5, Homo sapiens, UniProt Q00535); enzyme activity, inhibitor, radiometric; 1 µM, 20 min): 102%
O=C1Nc2cc(O)ccc2C1=O  remaining activity (CTSL; enzyme activity, inhibitor; 100 µM): 83.7%
CNc1ncc2c(/C=C/C(=O)N3CCC(OC)CC3)nn(Cc3cccc(C(F)(F)F)c3)c2n1  remaining activity (FGFR3 (Homo sapiens, UniProt P22607); enzyme activity, inhibitor, radiometric; 1 µM): 84%
CN(Cc1ccc(C(C)(C)C)cc1)Cc1cccc2ccccc12  inhibition zone (Trichophyton rubrum; microbial growth, disc diffusion; ATCC28188; 0.004 µg/mL, 6 days): 55 mm
COc1cccc(OC)c1-c1cc(C(=O)NC2(C(=O)O)C3CC4CC(C3)CC2C4)nn1-c1ccc(C(=O)N(C)CCCN(C)CCCN(C)C(=O)CN2CCN(CC(=O)[O-])CCN(CC(=O)[O-])CCN(CC(=O)[O-])CC2)cc1C(C)C.[177Lu+3] (stereo not drawn)  tracer uptake (HT-29 tumour model; host not given, blood; intravenous, 4 h, tumour-bearing): 6 %ID/g
OCc1c[nH]c2ccccc12  remaining activity (CTSL; enzyme activity, inhibitor; 100 µM): 57.1%
O=c1nc(N2CCN(CC3CCCCC3)CC2)sc2c([N+](=O)[O-])cc(C(F)(F)F)cc12  concentration (CD-1 mouse, plasma; oral, 100 mg/kg, 24 h): 2.65 ng/mL
Cc1cc([C@@H](C)Nc2ccccc2C(=O)O)c2nc(N3CCC(F)(F)CC3)c(C#N)c(=O)n2c1  remaining activity (SPHK2 (Homo sapiens, UniProt Q9NRA0); enzyme activity, inhibitor, ADP detection; 10 µM): 107%
CC(C)C[C@H](NC(=O)[C@H](Cc1cscn1)NC(=O)CCc1ccccc1)C(=O)N[C@@H](CCCNC(=N)N)C(=O)c1nc2ccccc2s1  remaining activity (Transmembrane protease serine 6; enzyme activity, inhibitor; 0.1 µM): 0%
O=C(N[C@H](COC(=O)[C@H](Cc1ccccc1)NC(=O)c1ccccc1)Cc1ccccc1)c1ccccc1  remaining activity (CTSL; enzyme activity, inhibitor; 100 µM): 9.2%
CC(C)(O)[C@H](NC(=O)[C@H](Cc1cscn1)NC(=O)CCc1ccccc1)C(=O)N[C@@H](CCCNC(=N)N)C(=O)c1nc2ccccc2s1  remaining activity (ST14; enzyme activity, inhibitor; 0.1 µM): 82%
CCCCC(=O)Nc1ccc(-c2ccc3ncn(CCC)c(=O)c3c2)cn1  remaining binding (Tyrosine-protein kinase ABL1, non-phosphorylated (ABL1, Homo sapiens, UniProt P00519, H396P); binding, competition with immobilised ligand; 0.5 µM): 77%
C[C@H](O)[C@@H](NC(=O)[C@H](Cc1cscn1)NC(=O)CCc1ccccc1)C(=O)N[C@@H](CCCNC(=N)N)C(=O)c1nc2ccccc2s1  remaining activity (ST14; enzyme activity, inhibitor; 0.1 µM): 31%
O=C(CCc1ccc(O)cc1)c1c(O)cc(OC2OC(CO)C(O)C(O)C2O)cc1O (stereo not drawn)  remaining activity (CTSL; enzyme activity, inhibitor; 100 µM): 88.2%
N=C(N)NCCC[C@H](NC(=O)[C@H](Cc1ccccc1)NC(=O)[C@H](Cc1cscn1)NC(=O)CCc1ccccc1)C(=O)c1nc2ccccc2s1  remaining activity (Transmembrane protease serine 6; enzyme activity, inhibitor; 0.1 µM): 2%
C=CC(=O)N1CCC(COCC(=O)N2CCN(c3nc(-c4cnc(N)nc4C(F)F)nc(N4CCOC[C@@H]4C)n3)CC2)CC1  remaining binding (CLK3 (Homo sapiens, UniProt P49761); binding, competition with immobilised ligand; 1 µM): 76%

Excerpt of the above:
CC(C)C[C@H](NC(=O)[C@H](Cc1cscn1)NC(=O)CCc1ccccc1)C(=O)N[C@@H](CCCNC(=N)N)C(=O)c1nc2ccccc2s1  remaining activity (Transmembrane protease serine 6; enzyme activity, inhibitor; 0.1 µM): 0%
N=C(N)NCCC[C@H](NC(=O)[C@H](Cc1ccccc1)NC(=O)[C@H](Cc1cscn1)NC(=O)CCc1ccccc1)C(=O)c1nc2ccccc2s1  remaining activity (Transmembrane protease serine 6; enzyme activity, inhibitor; 0.1 µM): 2%
CCCCC(=O)Nc1ccc(-c2ccc3ncn(CCC)c(=O)c3c2)cn1  remaining binding (Tyrosine-protein kinase ABL1, non-phosphorylated (ABL1, Homo sapiens, UniProt P00519, H396P); binding, competition with immobilised ligand; 0.5 µM): 77%
